Measured values from different studies.
Compare with care: the assays were run in different laboratories. ± gives the spread as reported.

Under “tissue uptake ratio”, `CCCC[C@H](NC(=O)CNC(=O)CNC(=O)c1ccc(NN)nc1)C(=O)N[C@H]1CC(=O)NCCCC[C@@H](C(N)=O)NC(=O)[C@H](Cc2c[nH]c3ccccc23)NC(=O)[C@H](CCCNC(=N)N)NC(=O)[C@@H](Cc2ccccc2)NC(=O)[C@H](Cc2c[nH]cn2)NC1=O` [technetium-99m labelled] is recorded as 40.1 (C57 mouse, B16/F1 melanoma-bearing; intravenous, 4 h; baseline: tumour over skin).
The tissue uptake of `N=C(N)NCCC[C@@H]1NC(=O)[C@H](CCCCNC(=O)CCOCCOCCOCCOCCNC(=O)CC[C@H](NC(=O)CCOCCOCCOCCOCCNC(=O)CC[C@H](NC(=O)CN2CCN(CC(=O)O)CCN(CC(=O)O)CCN(CC(=O)O)CC2)C(=O)NCCOCCOCCOCCOCCC(=O)N[C@@H](CCC(=O)NCCOCCOCCOCCOCCC(=O)NCCCC[C@@H]2NC(=O)[C@@H](Cc3ccccc3)NC(=O)[C@H](CC(=O)O)NC(=O)CNC(=O)[C@H](CCCNC(=N)N)NC2=O)C(=O)NCCOCCOCCOCCOCCC(=O)NCCCC[C@@H]2NC(=O)[C@@H](Cc3ccccc3)NC(=O)[C@H](CC(=O)O)NC(=O)CNC(=O)[C@H](CCCNC(=N)N)NC2=O)C(=O)NCCOCCOCCOCCOCCC(=O)NCCCC[C@@H]2NC(=O)[C@@H](Cc3ccccc3)NC(=O)[C@H](CC(=O)O)NC(=O)CNC(=O)[C@H](CCCNC(=N)N)NC2=O)NC(=O)[C@@H](Cc2ccccc2)NC(=O)[C@H](CC(=O)O)NC(=O)CNC1=O` [indium-111 labelled] is reported as 0.12 ± 0.01 %ID/g (female athymic nude mice, brain; intravenous, 3 µCi, 4 h, U-87 MG glioma xenograft).
For `CCCC[C@H](NC(=O)CCCCCCCNC(=O)c1ccc(NN)nc1)C(=O)N[C@H]1CC(=O)NCCCC[C@@H](C(N)=O)NC(=O)[C@H](Cc2c[nH]c3ccccc23)NC(=O)[C@H](CCCNC(=N)N)NC(=O)[C@@H](Cc2ccccc2)NC(=O)[C@H](Cc2c[nH]cn2)NC1=O` [technetium-99m labelled], the tissue uptake was 0.18 ± 0.13 %ID/g (C57 mouse, B16/F1 melanoma, blood; 2 h, with: L-lysine 12 mg co-injected).
`N=C(N)NCCC[C@@H]1NC(=O)[C@H](CCCCNC(=O)c2ccc(CNC34CNCCNCC(NCc5ccc(C(=O)NCCCC[C@@H]6NC(=O)[C@@H](Cc7ccc(O)cc7)NC(=O)[C@H](CC(=O)O)NC(=O)CNC(=O)[C@H](CCCNC(=N)N)NC6=O)cc5)(CNCCNC3)CNCCNC4)cc2)NC(=O)[C@@H](Cc2ccc(O)cc2)NC(=O)[C@H](CC(=O)O)NC(=O)CNC1=O` [copper-64 labelled] gave an intact compound of greater than 95% (HPLC; nude mouse, U-87 MG xenograft, tumour; 1 h post injection).
`C[C@H](NC(=O)CNC(=O)[C@H](CCC(=O)O)NC(=O)[C@H](CCC(=O)O)NC(=O)[C@H](CC(=O)O)NC(=O)[C@@H]1CCCN1C(=O)[C@H](Cc1ccccc1)NC(=O)[C@H](CS)NC(=O)[C@H](Cc1ccc(O)cc1)NC(=O)CCCNC(=O)CNC(=O)CNC(=O)[C@@H](C)NC(=O)CN)C(=O)N[C@@H](CS)C(=O)N[C@@H](Cc1ccc(O)cc1)C(N)=O` [technetium-99m labelled] gave a radiochemical purity of 86 ± 1.34% (radio-HPLC; human serum; 24 h, 37 °C, serum mix 1:10 v/v).
`N=C(N)NCCC[C@@H]1NC(=O)[C@H](CCCCNC(=O)CC[C@H](NC(=O)CCOCCOCCOCCOCCNC(=O)CC[C@H](NC(=O)CN2CCN(CC(=O)O)CCN(CC(=O)O)CCN(CC(=O)O)CC2)C(=O)NCCOCCOCCOCCOCCC(=O)N[C@@H](CCC(=O)NCCCC[C@@H]2NC(=O)[C@@H](Cc3ccccc3)NC(=O)[C@H](CC(=O)O)NC(=O)CNC(=O)[C@H](CCCNC(=N)N)NC2=O)C(=O)NCCCC[C@@H]2NC(=O)[C@@H](Cc3ccccc3)NC(=O)[C@H](CC(=O)O)NC(=O)CNC(=O)[C@H](CCCNC(=N)N)NC2=O)C(=O)NCCCC[C@@H]2NC(=O)[C@@H](Cc3ccccc3)NC(=O)[C@H](CC(=O)O)NC(=O)CNC(=O)[C@H](CCCNC(=N)N)NC2=O)NC(=O)[C@@H](Cc2ccccc2)NC(=O)[C@H](CC(=O)O)NC(=O)CNC1=O` [indium-111 labelled] gave a tissue uptake of 0.12 ± 0.04 %ID/g (female athymic nude mice, muscle; intravenous, 3 µCi, 72 h, U-87 MG glioma xenograft).
With `CSCC[C@H](NC(=O)[C@H](CC(C)C)NC(=O)[C@H](Cc1c[nH]cn1)NC(=O)CNC(=O)[C@@H](NC(=O)[C@H](C)NC(=O)[C@H](Cc1c[nH]c2ccccc12)NC(=O)[C@H](CCC(N)=O)NC(=O)CCCCCNC(=O)CNC(=O)CNC(=O)CNC(=O)CSC(C)=O)C(C)C)C(N)=O` [technetium-99m labelled] the tissue uptake was 1.2 ± 0.32 %ID/g (nude mouse, PC-3 xenograft, lung; 30 min).
`N=C(N)NCCC[C@@H]1NC(=O)[C@H](CCCCNC(=O)CNC(=O)CNC(=O)CNC(=O)CC[C@H](NC(=O)CCOCCOCCOCCOCCNC(=O)CC[C@H](NC(=O)CN2CCN(CC(=O)O)CCN(CC(=O)O)CCN(CC(=O)O)CC2)C(=O)NCCOCCOCCOCCOCCC(=O)N[C@@H](CCC(=O)NCC(=O)NCC(=O)NCC(=O)NCCCC[C@@H]2NC(=O)[C@@H](Cc3ccccc3)NC(=O)[C@H](CC(=O)O)NC(=O)CNC(=O)[C@H](CCCNC(=N)N)NC2=O)C(=O)NCC(=O)NCC(=O)NCC(=O)NCCCC[C@@H]2NC(=O)[C@@H](Cc3ccccc3)NC(=O)[C@H](CC(=O)O)NC(=O)CNC(=O)[C@H](CCCNC(=N)N)NC2=O)C(=O)NCC(=O)NCC(=O)NCC(=O)NCCCC[C@@H]2NC(=O)[C@@H](Cc3ccccc3)NC(=O)[C@H](CC(=O)O)NC(=O)CNC(=O)[C@H](CCCNC(=N)N)NC2=O)NC(=O)[C@@H](Cc2ccccc2)NC(=O)[C@H](CC(=O)O)NC(=O)CNC1=O` [indium-111 labelled] has a tissue uptake of 0.02 %ID/g (female athymic nude mice, blood; intravenous, 3 µCi, 24 h, U-87 MG glioma xenograft).
`CCCC[C@H](NC(=O)CNC(=O)[C@H](CO)NC(=O)CNC(=O)c1ccc(NN)nc1)C(=O)N[C@H]1CC(=O)NCCCC[C@@H](C(N)=O)NC(=O)[C@H](Cc2c[nH]c3ccccc23)NC(=O)[C@H](CCCNC(=N)N)NC(=O)[C@@H](Cc2ccccc2)NC(=O)[C@H](Cc2c[nH]cn2)NC1=O` [technetium-99m labelled] has an uptake of 0.06 ± 0.02 %ID/g (C57 mouse, B16/F1 melanoma, heart; intravenous, 2 h).

Excerpt of the above:
`CCCC[C@H](NC(=O)CNC(=O)[C@H](CO)NC(=O)CNC(=O)c1ccc(NN)nc1)C(=O)N[C@H]1CC(=O)NCCCC[C@@H](C(N)=O)NC(=O)[C@H](Cc2c[nH]c3ccccc23)NC(=O)[C@H](CCCNC(=N)N)NC(=O)[C@@H](Cc2ccccc2)NC(=O)[C@H](Cc2c[nH]cn2)NC1=O` [technetium-99m labelled] has an uptake of 0.06 ± 0.02 %ID/g (C57 mouse, B16/F1 melanoma, heart; intravenous, 2 h).
